Published values of several laboratories.
A part holds a random share of what one study measured. Substitutions count along the parent as printed.

Block 1
Target: Sal-like protein 4, full length isoform A (SALL4, Homo sapiens, UniProt Q9UJQ4, residues 1-1053)
Chain of UniProt Q9UJQ4 (whole entry, looked up): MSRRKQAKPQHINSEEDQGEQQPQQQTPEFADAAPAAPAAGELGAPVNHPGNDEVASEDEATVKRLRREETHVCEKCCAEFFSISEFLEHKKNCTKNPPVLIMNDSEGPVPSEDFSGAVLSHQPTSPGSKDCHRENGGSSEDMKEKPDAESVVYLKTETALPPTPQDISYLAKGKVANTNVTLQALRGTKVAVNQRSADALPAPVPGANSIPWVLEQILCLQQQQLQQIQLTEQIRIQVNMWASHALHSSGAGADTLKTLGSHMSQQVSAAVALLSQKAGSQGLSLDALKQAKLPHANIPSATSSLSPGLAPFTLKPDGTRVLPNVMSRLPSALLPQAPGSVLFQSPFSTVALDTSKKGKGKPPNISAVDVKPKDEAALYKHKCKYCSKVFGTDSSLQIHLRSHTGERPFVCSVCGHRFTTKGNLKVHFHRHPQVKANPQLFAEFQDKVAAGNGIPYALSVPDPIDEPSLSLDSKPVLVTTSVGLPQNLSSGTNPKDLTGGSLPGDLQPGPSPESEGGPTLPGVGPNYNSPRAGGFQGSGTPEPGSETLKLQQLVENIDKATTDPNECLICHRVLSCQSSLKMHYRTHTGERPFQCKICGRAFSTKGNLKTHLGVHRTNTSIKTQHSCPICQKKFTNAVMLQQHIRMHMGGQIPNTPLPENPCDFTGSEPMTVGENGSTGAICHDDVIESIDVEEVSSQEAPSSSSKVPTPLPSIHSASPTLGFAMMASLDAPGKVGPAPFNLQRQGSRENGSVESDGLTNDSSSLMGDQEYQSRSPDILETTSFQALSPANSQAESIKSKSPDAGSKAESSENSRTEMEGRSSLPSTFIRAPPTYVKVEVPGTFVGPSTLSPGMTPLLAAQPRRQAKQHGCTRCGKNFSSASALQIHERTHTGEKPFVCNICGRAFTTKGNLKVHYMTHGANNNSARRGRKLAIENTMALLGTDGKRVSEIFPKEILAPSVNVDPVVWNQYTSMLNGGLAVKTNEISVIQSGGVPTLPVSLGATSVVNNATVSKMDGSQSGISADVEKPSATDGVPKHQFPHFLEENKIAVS
Method: universal PBM
Form: double-stranded DNA, one strand shown
Matrix: in vitro
Concentration: 600 nM
Notes: 8-mer, flanks averaged, mean of replicates
Reading: higher = stronger binding
Endpoint: E-score
CAGTATCC: -0.0877
ATGAGACC: -0.105
TCAAGTGA: 0.0773
CAGGGGCG: -0.389
CTTTTAAA: 0.215

Block 2
Target: RNA binding protein fox-1 homolog 2, RRM domain, GST-SBP tag (RBFOX2, Homo sapiens, UniProt O43251-10, residues 100-194)
Method: RNA Bind-n-Seq
Form: RNA
Matrix: in vitro
Concentration: 365 nM
Notes: natural RNA segment, single round, ends assumed
Baseline: no-protein control
Reading: higher = stronger binding
Endpoint: RBNS enrichment (R)
Constant ends, left off below: GGGAGUUCUACAGUCCGACGAUC … UGGAAUUCUCGGGUGCCAA
Construct (chain): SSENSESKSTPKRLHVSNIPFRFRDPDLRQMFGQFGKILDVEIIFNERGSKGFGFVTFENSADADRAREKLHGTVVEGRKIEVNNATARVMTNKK
UUGUAUUGUGUAUGUCAAGAAUCACUCCAUUGUUCGUGUUGCUUUUUGCACUGUUUGUUCCCCGCUGUGUUUUGAGCUAGAACAAGGAGUUGCCUGGGAUUGGGAGCUGU: 1.66
AUCCCUCACAUCCUGUCACGGCAGGGGCUGUGCAGGGUACUGCCCUCCCUCUGCCCAGCAGCCCCAUCUCUCCAUCACCCUGAGCCCCUCAGGUCCCAACUGAAUGUCUG: 0.533
CUUUCAGCUGUGGCAUCUGUGGCAAAAGCUUCUCCCAACGGUCAGCACUUAUCCCCCACGCCCGCAGCCACGCCCGUGAAAAGCCCUUCAAGUGCCCAGAGUGCGGCAAG: 0.821
UCUGUAUAAAAGCAGAUCUUUUUAAAAAGAUACUUCUGUAACUUAAGAAACCUGGCAUUUAAAUCAUAUUUUGUCUUUAGGUAAAAGCUUUGGUUUGUGUUCGUGUUUUG: 0.434
CUUGUGAUUUCUGGCAUCUCUGUGGGGUGAGGUGUUCUGUUACUCUUCACAUUCAAAGACUGUCACCCAUGAACGUCAGACUUUGCAAAGGGGCUCUCUAAGCUGCACUG: 0.444
CUCGGCCACACUGCCCCUUGUGGCCUUCUCGGGACAUGUGGUAACUGACUUGCUCUCAGGCCCACCCGCAGCUUUUCCAAAUACCUGCAGCCUUCAGCCCUGCUGCCCUG: 2.3
AAAUGUAUAAAUGUAUAUUGUAUUGUAUGUACAUUUUAUAUUCAUAAUAAAGGCAAUCAAACUCUAACCUCUAAGUCCUUCUAUAAGUGUGGUGGAAAUGUCCUAUGUGA: 3.25
UCAUCUAGGUUUAUAGUUCAGUAGCUUAGGCAAGGCACACACUGCUCAUCUCCGCUUUUUAGGGUCAGAGGAACACAAGCUCAUGUUCUGAGUGAAGGGCGUACACUGGC: 0.23

Block 3
Target: ABI1, truncated, D143A, DHFR fusion (Arabidopsis thaliana)
Method: DHFR PCA, deep sequencing
Matrix: yeast
Notes: methotrexate growth selection, single substitutions
With: (+)-ABA 1.4 µM
Baseline: wild-type fitted maximum
Reading: higher = stronger binding
Endpoint: relative binding score
Parent: PYL1, truncated, DHFR fusion (Arabidopsis thaliana); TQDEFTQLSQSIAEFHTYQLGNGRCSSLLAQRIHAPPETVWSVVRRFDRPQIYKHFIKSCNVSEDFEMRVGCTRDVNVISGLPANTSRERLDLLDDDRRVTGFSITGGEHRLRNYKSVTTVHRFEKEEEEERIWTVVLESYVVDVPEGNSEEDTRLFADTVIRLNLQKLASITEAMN
M68Y: 20.6%
T135F: -10.2%
R88W: 7.57%
E129H: 64.9%
F15S: 5.39%
Q31Y: -0.905%

Mixed results
PhoQ, residues 284 288 289 292 302 303 QWQEDG
fold induction (PhoP, residues 12 14 15 18 19 NIMAP (Escherichia coli, UniProt P23836); Sort-seq, item: YFP reporter; E. coli; PhoQ-PhoP variant library, with: 10 µM Mg2+; baseline: high Mg2+ state, higher = stronger signaling): 0.801
